Measured values gathered from unrelated publications.
Protocols differ between the studies behind these lines. ± gives the spread as reported.
Route: intravenous

Compound | test | test system | conditions | tissue uptake
CCCC[C@H](NC(=O)CNC(=O)CNC(=O)[C@H](CCCCNC(=O)[C@H](CC(=O)O)NC(=O)C(C)c1ccc(CC(C)C)cc1)NC(=O)CN1CCN(CC(=O)O)CCN(CC(=O)O)CCN(CC(=O)O)CC1)C(=O)N[C@H]1CC(=O)NCCCC[C@@H](C(N)=O)NC(=O)[C@H](Cc2c[nH]c3ccccc23)NC(=O)[C@H](CCCNC(=N)N)NC(=O)[C@@H](Cc2ccccc2)NC(=O)[C@H](Cc2c[nH]cn2)NC1=O (some centres unmarked) [lutetium-177 labelled] |  | C57 mice, tumour-bearing, brain | 0.037 MBq, 0.5 h | 0.32 ± 0.06 %ID/g
O=C([O-])CN1CCN(CC(=O)[O-])CCN(CC(=O)NC[C@H]2CC[C@H](C(=O)N[C@H](Cc3cnc4ccccc4c3)C(=O)NCCCC[C@H](NC(=O)N[C@@H](CCC(=O)O)C(=O)O)C(=O)O)CC2)CCN(CC(=O)[O-])CC1.[64Cu+2] | ex vivo gamma counting | 22Rv1 tumour-bearing mice, blood | 0.74 MBq, 2 h post-injection | 2.16 %ID/g
CCCC[C@H](NC(=O)CCCCCCCNC(=O)CN1CCN(CC(=O)O)CCN(CC(=O)O)CC1)C(=O)N[C@H]1CC(=O)NCCCC[C@@H](C(N)=O)NC(=O)[C@H](Cc2c[nH]c3ccccc23)NC(=O)[C@H](CCCNC(=N)N)NC(=O)[C@@H](Cc2ccccc2)NC(=O)[C@H](Cc2c[nH]cn2)NC1=O [fluorine-18 labelled] |  | C57 mice B16-F10 melanoma, liver | 0.37 MBq, 1 h | 3.31 ± 0.12 %ID/g
COc1ccc(Nc2nc(Nc3ccc(OCCOCCOCC[18F])cc3)ncc2Br)cc1 |  | ICR mice, S180 tumour-bearing, muscle | 370 kBq, 60 min | 2.58 ± 0.29 %ID/g
O=C(NCC1OC2CCC=CCCC2O1)c1ccc([18F])nc1 (centres unmarked) |  | healthy female BALB/c nude mice, bone | 7.4 MBq per mouse, 2 min | 1.4 ± 0.3 %ID/g
CCCC[C@H](NC(=O)COCCOCCNC(=O)CN1CCN(CC(=O)O)CCN(CC(=O)O)CC1)C(=O)N[C@H]1CC(=O)NCCCC[C@@H](C(N)=O)NC(=O)[C@H](Cc2c[nH]c3ccccc23)NC(=O)[C@H](CCCNC(=N)N)NC(=O)[C@@H](Cc2ccccc2)NC(=O)[C@H](Cc2c[nH]cn2)NC1=O [fluorine-18 labelled] |  | C57 mice B16-F10 melanoma, spleen | 0.37 MBq, 0.5 h | 0.53 ± 0.21 %ID/g
COc1ccc(Nc2nc(Nc3ccc(OCCOCC[18F])cc3)ncc2Br)cc1 |  | ICR mice, S180 tumour-bearing, liver | 370 kBq, 120 min | 1.73 ± 0.25 %ID/g
Cc1cc(C)n(CCN(CCN)CCCCCCNC(=O)[C@@H](N)Cc2c[nH]cn2)n1.[99Tc+].[C-]#[O+].[C-]#[O+].[C-]#[O+] |  | BALB/c nude mice, A549 xenograft, kidney | 24 h | 4 ± 0.46 %IA/g

Some of these lines once more:
Compound | test | test system | conditions | tissue uptake
CCCC[C@H](NC(=O)CCCCCCCNC(=O)CN1CCN(CC(=O)O)CCN(CC(=O)O)CC1)C(=O)N[C@H]1CC(=O)NCCCC[C@@H](C(N)=O)NC(=O)[C@H](Cc2c[nH]c3ccccc23)NC(=O)[C@H](CCCNC(=N)N)NC(=O)[C@@H](Cc2ccccc2)NC(=O)[C@H](Cc2c[nH]cn2)NC1=O [fluorine-18 labelled] |  | C57 mice B16-F10 melanoma, liver | 0.37 MBq, 1 h | 3.31 ± 0.12 %ID/g
